Experimental data pooled from the literature.
± marks the error that the study gave.

For `O=C(Nc1cnccc1Cl)N1CCN(Cc2ccc3c(c2)OC(F)(F)O3)CC1`, the t1/2 was 10.9 h (healthy young women, plasma; oral, 100 mg once daily, day 10).
`O=C(Nc1ccc(OC(F)(F)Cl)cc1)c1cnc(N2CC[C@@H](O)C2)c(-c2ccn[nH]2)c1`: “in vitro half-life” 12.5 ± 3.48 h (rat liver microsomes; 1 µM, pH 7.4, 37 °C, with: NADPH 1 mM, shikonin 10 µM).
For `COc1cc(C=CC(=O)O)ccc1OS(=O)(=O)O`, the plasma concentration was 1270 nM (human plasma; mean).
The confluence of `CCCCCCCC(=O)c1cc(OC)c(OC)c(OC)c1CC(=O)OCC` is reported as 0.93 ± 0.04 (COS-7; 10 µM, 24 h, 0.1% DMSO, unit not given; baseline: vehicle control).
The recovery of `N#C[C@@]1(c2ccc3c(N)ncnn23)O[C@H](CO)[C@@H](O)[C@H]1O` is reported as 105% (plasma protein binding; dog plasma; 100 µM, time not given).
`O=C(O)CCC(=O)O.[2H]C([2H])([2H])Oc1cc(C)c2[nH]ccc2c1CN1CC[C@@H](C2CC2)C[C@H]1c1ccc(C(=O)O)cc1` — result for “subjects with reduced potassium TEAE”: 0% (multiple ascending dose; healthy Chinese subjects; 50 mg twice daily).
`CCc1cc(C(=O)NC)c2nccc(N3CCc4c(cc(Cn5ccnc5)cc4-c4cn(C)nc4C(F)(F)F)C3=O)c2c1` — result for “AUC extrapolated fraction”: 0% (Sprague Dawley rat, male, plasma; oral, 50 mg/kg).
For `CCn1cc(C(=O)O)c(=O)c2cc(F)c(N3CCNCC3)cc21`, the amount permeated was 2.81 nmol (starch gel membrane permeability; Gram-negative envelope surrogate; 200 µM, 45 min, pH 7.4).
For `COc1ccc([C@@H]2CC(=O)c3c(O)cc(O)cc3O2)cc1O`, the plasma concentration was 168 nM (human plasma; median, both sexes).
For `CNCc1ccc(-c2[nH]c3cc(F)cc4c3c2CCNC4=O)cc1`, “patients with adverse event” read 19.6% (measured: Cough; human patients; oral, dose not given, all grades, all doses).
The cell viability of `COc1c(O)c(C)cc2c1C(=O)c1c(ccc(O)c1O)C2=O` is reported as 95.9 ± 14.1% (HepaRG co-cultured with HK-2; MTT; 33.33 µM, 24 h; baseline: untreated control).
For `Cc1c(-c2ccc(N3CCc4cccc(C(=O)Nc5nc6ccccc6s5)c4C3)nc2C(=O)O)cnn1CC12CC3(C)CC(C)(C1)CC(OCCNCC[C@H](O)CO)(C3)C2`, “mean arterial pressure change” read 0 mmHg (beagle dog, male, anaesthetised; intravenous infusion, 0.01 mg/kg/min, 15 min; baseline: baseline).
`CCOC(=O)[C@@]12C[C@@H]1[C@@H](n1ccc3c(NC)nc(C#Cc4ccc(Cl)s4)nc31)[C@H](O)[C@@H]2O` — result for “AUC extrapolated share”: 20.5% (Sprague-Dawley rat, male, plasma; oral, 1 mg/kg).
For `C[Si](C)(C)O[Si](C)(C)C`, the log KAW was 2.32 (7 to 48 µg/L, 20.0 °C).
`C[C@@H](N)C1CCN(S(=O)(=O)c2cccc3cnccc23)CC1` — result for “duration of quantifiable plasma levels”: ≤ 8 h (healthy volunteers, fasted, plasma; oral, 150 mg).
The necrosis of `C=C(c1ccc(C(=O)O)cc1)c1cc2c(cc1C)C(C)(C)CCC2(C)C` is reported as 3.71 ± 1.94 (COS-7; 100 µM, 24 h, 0.1% DMSO, unit not given; baseline: control).
The AUC(0-24) of `C[C@@H]1CCO[C@H]2Cn3cc(C(=O)NCc4ccc(F)cc4F)c(=O)c(O)c3C(=O)N12` is reported as 25400 ng·h/mL (human paediatric patients, weight 6 to under sample A kg, plasma; oral, 4.8 mg granules, steady state, geometric mean, population PK post-hoc, N 1).
For `COc1cccc(-c2n[nH]c(SCc3ccccn3)n2)c1OC`, the AUC(0-last) ratio was 0.53 (Sprague-Dawley rat, plasma; oral, 10 mg/kg; baseline: female over male).
For `Cc1cccc(CNC(=O)c2cn(CCNC(=O)c3ccccc3S)c3cc4c(cc3c2=O)OC(F)(F)O4)n1`, the Tmax was 8.83 ± 7.62 h (Sprague-Dawley rat, male, plasma; intramuscular, 3 mg/kg of parent drug).
`O=C(COc1ccc(Cl)cc1)NC12CC(c3nnc([C@H]4C[C@@H](OC(F)(F)F)C4)o3)(C1)C2` — result for “drug-related TEAE participants”: 85.7% (human both sexes; oral, 260 mg once daily, 14 days).
The serum BUN of `CC1CCNc2c(C(=O)NC/C=C/S(C)(=O)=O)cccc21` (stereo not drawn) is reported as 27 mg/dL (uninfected mouse, serum; 300 mg/kg).
For `CN1CCN(c2cnc3c(cc(C(=O)NCc4ccc(Cl)cc4)c(=O)n3CC(=O)N3CC(C)(F)C3)n2)C1=O`, the selectivity ratio was > 177 (human cytomegalovirus; MRC-5, AD169-GFP; baseline: CC50 over EC50).
`O=C(O)CCc1ccc(O)c(O[C@@H]2O[C@H](C(=O)O)[C@@H](O)[C@H](O)[C@H]2O)c1` has a plasma concentration of 616 nM (human plasma; mean).
For `CC(C)C[C@H](NC(=O)[C@@H](Cc1c[nH]c2ccccc12)NC(=O)[C@H](Cc1ccc(O)cc1)NC(=O)[C@H](CO)NC(=O)[C@H](Cc1c[nH]c2ccccc12)NC(=O)[C@H](Cc1c[nH]cn1)NC(=O)[C@@H]1CCC(=O)N1)C(=O)N[C@@H](CCCNC(=N)N)C(=O)N1CCC[C@H]1C(=O)NCC(N)=O`, “patients, drug-related TEAEs” read 16.1% (Chinese CPP children, girls; intramuscular, 22.5 mg, 12 months, day 1, month 6).

Repeated from above:
The confluence of `CCCCCCCC(=O)c1cc(OC)c(OC)c(OC)c1CC(=O)OCC` is reported as 0.93 ± 0.04 (COS-7; 10 µM, 24 h, 0.1% DMSO, unit not given; baseline: vehicle control).
`O=C(Nc1ccc(OC(F)(F)Cl)cc1)c1cnc(N2CC[C@@H](O)C2)c(-c2ccn[nH]2)c1`: “in vitro half-life” 12.5 ± 3.48 h (rat liver microsomes; 1 µM, pH 7.4, 37 °C, with: NADPH 1 mM, shikonin 10 µM).
For `COc1cccc(-c2n[nH]c(SCc3ccccn3)n2)c1OC`, the AUC(0-last) ratio was 0.53 (Sprague-Dawley rat, plasma; oral, 10 mg/kg; baseline: female over male).
`C[C@@H](N)C1CCN(S(=O)(=O)c2cccc3cnccc23)CC1` — result for “duration of quantifiable plasma levels”: ≤ 8 h (healthy volunteers, fasted, plasma; oral, 150 mg).
